Measured values of several laboratories.
Protocols differ between the studies behind these lines. ± marks the error that the study gave.

Substance | target or system | test | system | conditions | scale | endpoint | value
C[C@H](NP(=O)(Nc1ccn([C@H]2CS[C@@H](CO)O2)c(=O)n1)N[C@@H](C)C(=O)OCc1ccccc1)C(=O)OCc1ccccc1 | L1210 TK-deficient | cell proliferation |  | 2 d |  | IC50 | 150 ± 18 µM
AEOL 10150 |  | Fluoro-Jade B staining | rat, status epilepticus, hippocampal hilus | sc, 7 mg/kg every 4 h, 24 h, from 5 min post-SE |  | neurodegeneration | no effect
CN1CC[C@]23c4c5ccc(O)c4O[C@H]2[C@@H](O)C=C[C@H]3[C@H]1C5 |  | hyperlocomotion | C57BL/6J male mice | subcutaneous, dose not given |  | maximal distance traveled | ~20000 cm
Nc1ccc([As]2SCCS2)cc1 | RKO | cell viability, MTS |  |  |  | IC50 | 3.74 ± 0.88 µM
Cc1cc(/C=C/C#N)cc(C)c1Oc1nc(NC2CCN(Cc3ccc(P(C)(C)=O)cc3)CC2)nc2ccsc12 | HIV-1 |  | MT-4, RES056 K103N/Y181C |  | relative to: CC50 over EC50 | selectivity index | 7400
C[C@H](NP(=O)(Nc1ccn([C@H]2CS[C@@H](COP(=O)(N[C@@H](C)C(=O)OCc3ccccc3)N[C@@H](C)C(=O)OCc3ccccc3)O2)c(=O)n1)N[C@@H](C)C(=O)OCc1ccccc1)C(=O)OCc1ccccc1 | L1210 TK-deficient | cell proliferation |  | 2 d |  | IC50 | > 250 µM
C#CC(=O)Nc1ccc([As]2SCCS2)cc1 | RKO | cell viability, MTS |  |  |  | IC50 | 0.79 ± 0.05 µM
13-desmethyl spirolide C | nicotinic acetylcholine receptor (Torpedo marmorata) | binding |  | Pecten maximus extract 25 mg/mL, added: biotin-α-bungarotoxin |  | IC50 | 0.00714 ± 0.00107 µM
O=C(Cn1c(-c2ccccn2)nc2ccccc21)Nc1ccc2ccccc2c1 | Helicobacter pylori | cell growth | G27, Brucella broth | culture exiting stationary phase |  | minimum concentration blocking growth | 20 µM
20-methyl spirolide G | nicotinic acetylcholine receptor (Torpedo marmorata) | binding |  | added: biotin-α-bungarotoxin |  | Hill slope | 0.93 ± 0.06
NC12CC3CC(CC(C3)C1)C2 | Influenza A virus | viral replication, plaque size reduction | MDCK, A/Swine/Iowa/10-0628/2010 (H3N2) |  |  | EC50 | > 100 µM
